Results from different studies.
Protocols differ between the studies behind these lines. “And” joins repeats or separate records; there may be more than shown. ± gives the spread as reported.

| Structure (SMILES) | target or system | assay | system | setting | how to read | endpoint | value |
| --- | --- | --- | --- | --- | --- | --- | --- |
| CCn1cc(C(=O)N2CCOCC2)c(=O)c2cc(NC3Cc4ccccc4C3)cnc21 | – | – | human, fasted | oral suspension, 150 mg single dose, arithmetic mean | – | AUC(0-last) | 1.82 µg·h/mL |
| CC(=O)N[C@H]1CC[C@H](NC(=O)CN2CCN(c3nncc(-c4ccc(C)cc4)n3)CC2)CC1 | – | – | women, plasma | oral, 100 mg single dose, study | – | AUC(0-last) | 6.35 µg·h/mL |
| CN1CC[C@H](c2c(O)cc(O)c3c(=O)cc(-c4ccccc4Cl)oc23)[C@H](O)C1 | COS-7 | – | – | 100 µM, 24 h, 0.1% DMSO, unit not given | relative to: control | apoptosis | 0.76 ± 0.15 |
| COc1c(O)cc2c(c1O)C(=O)c1c(cc(C)c(O)c1OC)C2=O | HepaRG co-cultured with HK-2 | MTT | – | 16.67 µM, 24 h | relative to: untreated control | cell viability | 97.2 ± 9.92% |
| CC(C)c1nc(N(C)S(C)(=O)=O)nc(-c2ccc(F)cc2)c1/C=C/[C@@H](O)C[C@@H](O)CC(=O)O | – | – | Wistar albino rat, both sexes, plasma | oral, 20 mg/kg | – | AUC(0-last) | 10.1 µg·h/mL and 9.09 µg·h/mL and 4.41 µg·h/mL and 17.7 µg·h/mL and 7.42 µg·h/mL |
| CCc1cc(C(=O)NC)c2nccc(N3CCc4c(cc(Cn5ccnc5)cc4-c4cn(C)nc4C(F)(F)F)C3=O)c2c1 | – | – | Sprague Dawley rat, male, plasma | oral, 100 mg/kg twice daily, day 1 | – | AUC(0-last) | 117 µg·h/mL |
| NC1(C(=O)N[C@@H](CCO)c2ccc(Cl)cc2)CCN(c2nc[nH]c3nccc2-3)CC1 | – | – | human, plasma | oral, 480 mg single dose | – | AUC(0-last) | 6.64 µg·h/mL and 2.57 µg·h/mL and 5.9 µg·h/mL and 2.85 µg·h/mL and 3.24 µg·h/mL |
| CC[C@H](C)CCCCC(=O)N[C@@H](CCN)C(=O)N[C@H](C(=O)N[C@@H](CCN)C(=O)N[C@H]1CCNC(=O)[C@H]([C@@H](C)O)NC(=O)[C@H](CCN)NC(=O)[C@H](CCN)NC(=O)[C@H](CC(C)C)NC(=O)[C@@H](Cc2ccccc2)NC(=O)[C@H](CCN)NC1=O)[C@@H](C)O | – | – | ESKD on long-term intermittent haemodialysis, plasma | intravenous infusion, 0.75 mg/kg, geometric least squares mean | – | AUC(0-last) | 30.5 µg·h/mL |
| CCCCCCCOc1ccc(CCC(N)(CO)CO)cc1C(F)(F)F.Cl | – | – | male Sprague-Dawley rat, plasma | oral, 1 mg/kg, single dose | – | AUC(0-last) | 0.0239 µg·h/mL |
| CC(C)c1nc(N(C)S(C)(=O)=O)nc(-c2ccc(F)cc2)c1/C=C/[C@@H](O)C[C@@H](O)CC(=O)O | – | – | healthy volunteers, plasma | oral, 10 mg single dose, day 1, given alone, BCRP probe | – | AUC(0-last) | 0.0402 µg·h/mL |
| C[C@@]1(c2cc(NC(=O)c3ccc(C#N)cn3)ccc2F)C=CSC(N)=N1 | – | – | elderly men and women, plasma | oral, 1 mg single dose | – | AUC(0-last) | 0.0547 µg·h/mL |
| O=C(O)c1cc(O)c2c(c1)C(=O)c1cccc(O)c1C2=O | HepaRG co-cultured with HK-2 | MTT | – | 16.67 µM, 24 h | relative to: untreated control | cell viability | 97 ± 14.8% |
| CCCCCCCCc1ccc(CCC(N)(CO)CO)cc1 | – | – | Sprague-Dawley rat, heart | oral, 1 mg/kg, single dose | – | AUC(0-last) | 11400 ng·h/g |
| COc1ncc(-c2nc3c(n2C(C)C)[C@H](c2ccc(Cl)cc2)N(c2cc(Cl)cn(C)c2=O)C3=O)c(OC)n1 | – | LC-MS/MS | human, plasma | oral, 7.5 mg, cycle 1 day 1, low-dose arm | – | AUC(0-last) | 0.598 µg·h/mL |
| COc1cccc(-c2n[nH]c(SCc3ccccn3)n2)c1OC | – | – | Sprague-Dawley rat, female, plasma | oral gavage, 10 mg/kg | – | AUC(0-last) | 14.2 µg·h/mL |
| CCC(=O)NS(=O)(=O)c1ccc(-c2c(-c3ccccc3)noc2C)cc1 | COS-7 | – | – | 50 µM, 24 h, 0.1% DMSO, unit not given | relative to: vehicle control | apoptotic cells | 0.82 ± 0.08 |
| C[C@H]1CN(C(=O)CC#N)[C@]12CCN(c1ncnc3[nH]ccc13)C2 | – | – | healthy Japanese males, plasma | oral, 50 mg single dose | – | AUC(0-last) | 1.8 µg·h/mL |
